Assay results gathered from unrelated publications.
Every numbered part comes from another study and shows a few of its results, in no order.

Study 1
Target: RNA binding protein fox-1 homolog 2, RRM domain, GST-SBP tag (RBFOX2, Homo sapiens, UniProt O43251-10, residues 100-194)
Technique: RNA Bind-n-Seq
Form: RNA
Medium: in vitro
Concentration: 365 nM
Notes: natural RNA segment, single round, ends assumed
Baseline: no-protein control
Direction: higher = stronger binding
Residues (chain): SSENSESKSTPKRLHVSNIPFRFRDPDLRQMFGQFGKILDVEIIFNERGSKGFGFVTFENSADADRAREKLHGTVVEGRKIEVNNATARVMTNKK
Oligonucleotide	RBNS enrichment (R)
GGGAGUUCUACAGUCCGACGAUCCCUCUUCACUUCCCCGGCACCCUUGUAUCCCCACAGCAGUACUGAGGAGCACGGACGCCUCUGUGAGGCAUGGGAAGGUGGGAUUGUUGAACUAAUAAACGUUAAUCUGAUGGAAUUCUCGGGUGCCAA	0.4
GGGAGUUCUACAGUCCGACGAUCCCGUGGCCCGUGGUGCAGCCGUGGCCCAUGGCAGCCUGUAGAAUCCAGGUGCACAGAGAGCCCUGCCACCGUCUUACCUCUGGGCUUUGGUGCUUAACACACAACACAGCUGGAAUUCUCGGGUGCCAA	0.285
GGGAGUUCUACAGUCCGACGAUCGGUGUUUCCUGGCUGUUAUGACCUGCUGUCCACCCCUCCUCAACAUCGAGCUCUGUUGUAAAUACGUCGCACCAGAGGCCACUGUGAUGCCACUGUCUCCUCUCCAUCCCUGGAAUUCUCGGGUGCCAA	0.587
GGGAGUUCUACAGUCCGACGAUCUGCUCUCUCAAGAUUAAAGUCUUUCAGCAACAUUCUUUAUUGUCAUCAUAAGGAAAAACUUUUAUCGCAAUGAUAGUCAGUUCACAUUAGUUUAGCACUAUAGAUAGUAUUGGAAUUCUCGGGUGCCAA	0.612
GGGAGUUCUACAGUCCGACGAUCCUACCAAUGACAGGGUGCCCUGGCUGGAGCUGUCAUCACACACACCCCUCAGCUCGGAGGCUGUGGGCUCCUCAAAGCUGGAGAAAGAGGCCAAGAUUUUUCUGCACACGUGGAAUUCUCGGGUGCCAA	0.51
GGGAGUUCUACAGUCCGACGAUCAGACAGGGUUUCACCAUAUUAGCCAGGAUGGUCUCGAUCUCCUGACCUCGUGAUCCGCCCACCUCGGCCUCCCAAAGUGCUGGGAUUACAGGCGUGAGCCACCACGCCCAUGGAAUUCUCGGGUGCCAA	0.199
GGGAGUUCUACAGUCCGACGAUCUAGAAUCCCUGAACACUACUUCACACCUCCCCCACUGCCAGUUGGUUGAUGCUCUAGAGCCACUCUUUCUUAAUGCCAGAUUAUUUAAAGAAAAAUACAAGACAAAAACCUGGAAUUCUCGGGUGCCAA	1.03
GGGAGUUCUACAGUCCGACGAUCACUACUGUAGGGCACAAUGACUUUUCUUUUCCCGUUUAAUUAGGCAAUACCCUUGUUAAUUGCCCGUUGGCAACUAACUUAAUCAUGUGCUUCCAACACACUAAAUAGGGUGGAAUUCUCGGGUGCCAA	0.348
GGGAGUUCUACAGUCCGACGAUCCAGGUGAGCCCUGAAAACACAAAAGGACAGUUCUGUGUUGAAACACCCCAUCCCCUCACGUUCUCACCCCAGGCCCAGAAGUAGGUUGCAACUGCCUUUGGAAGAUUUUGUGGAAUUCUCGGGUGCCAA	0.672
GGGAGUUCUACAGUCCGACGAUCUUACGGGCUAAAUCAAGAGCAGCUUAAUCCUGUUUACAAUGUGAGCUUUUUGUGCGUCUGUGAAAUGUUUUACAGUGUUUCUCAUCAUCUGUUUCCCAGCAAGGUCUUUUUGGAAUUCUCGGGUGCCAA	0.379
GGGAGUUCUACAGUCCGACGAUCGAGGAGGGUGAACAAGGUGAUCUCAGAGAUCACUACUGCUCUUGGAGUUCCUUCUCCUAAAGCUAAGGCCAGCCUCCAUCACAAAUGCCCAUAAAAUCUGGCUCGUCUUUUGGAAUUCUCGGGUGCCAA	0.356
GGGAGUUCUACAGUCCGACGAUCGAUCUGUGCAUUUUGUGCCUUAUUCACUCGAGUGGUAGAAGUUCCGCGGUAUGUUGAGUGUUUCCACUACAGAGCAUCAUUUCCCAUGUGCCACUUGUAAAUGUUUUGCAUGGAAUUCUCGGGUGCCAA	0.986

Study 2
Target: PABPC1L2, full length, GST fusion (mouse, UniProt A0ABA7IW68)
Technique: RNAcompete
Form: RNA
Medium: in vitro
Concentration: 20 nM
Notes: 7-mer, probes averaged, single round
Baseline: mean of 7-mers
Direction: higher = stronger binding
Residues (chain): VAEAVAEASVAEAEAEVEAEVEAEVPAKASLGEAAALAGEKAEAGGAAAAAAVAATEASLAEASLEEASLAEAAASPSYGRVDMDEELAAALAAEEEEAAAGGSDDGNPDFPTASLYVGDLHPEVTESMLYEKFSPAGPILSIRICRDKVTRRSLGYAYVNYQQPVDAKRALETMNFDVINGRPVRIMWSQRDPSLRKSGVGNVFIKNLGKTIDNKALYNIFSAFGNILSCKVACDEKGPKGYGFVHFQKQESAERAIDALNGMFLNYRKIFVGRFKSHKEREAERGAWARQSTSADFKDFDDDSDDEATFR
Oligonucleotide	7-mer Z-score
GGGCUAA	0.394
UAAUAUC	-0.211
CGUAGGU	-0.179
ACAGCGU	-0.168
AUUUUAG	0.0533
CAAGUUC	-0.307
AAUAAAA	5.26
UCCAAAC	0.207
GUCUGAA	-0.0536
GCGUGGU	0.111
AACUAGG	0.269
GCCUAGG	-0.193
CAAUCGC	-0.188
GAUAGCU	-0.311
GCGACUU	-0.117
ACCACGU	-0.0881

Study 3
Target: Interferon regulatory factor 3, full length, phosphomimetic (IRF3, Homo sapiens, UniProt Q14653, residues 1-427, S386D/S396D/S398D/S402D/T404D/S405D)
Technique: protein-binding microarray
Form: double-stranded DNA, one strand shown
Medium: in vitro
Concentration: 2540 nM top
Notes: 60-bp whole probe
With: salmon DNA 0.4 mg/ml
Baseline: random background probes
Direction: higher = stronger binding
Shared flanks, not repeated: GCCTAGCAC … GTCTTGATTCGCTTGACGCTGCTG
Residues (chain): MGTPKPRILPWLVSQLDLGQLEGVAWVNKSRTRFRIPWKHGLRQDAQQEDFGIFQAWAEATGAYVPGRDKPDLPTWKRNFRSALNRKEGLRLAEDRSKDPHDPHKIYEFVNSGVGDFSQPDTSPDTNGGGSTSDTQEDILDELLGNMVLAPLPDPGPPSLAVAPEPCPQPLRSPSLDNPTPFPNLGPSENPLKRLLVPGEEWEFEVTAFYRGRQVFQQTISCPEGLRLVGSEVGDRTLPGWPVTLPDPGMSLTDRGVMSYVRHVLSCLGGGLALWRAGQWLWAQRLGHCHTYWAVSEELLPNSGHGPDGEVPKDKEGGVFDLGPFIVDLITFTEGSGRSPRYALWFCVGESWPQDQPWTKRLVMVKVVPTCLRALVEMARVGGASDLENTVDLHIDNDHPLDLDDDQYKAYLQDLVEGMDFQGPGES
Oligonucleotide	fitted relative affinity [z-score]
TTAGGTTTTGGTATCGGTTAGTGCTAG	4.08
GACGAACTGAGATTCGAGACGTGCTAG	-0.164
GACGGAATCGGTTTCGGGACGTGCTAG	4.47
GAAGAACTGGGGACTGGAGACGTGCTA	-0.91
GATGGACTGGGTCTCGGGACGTGCTAG	-0.948
GACGAACTGGGGTATCGAGGCGTGCTA	-0.547
TCATTTTTTGGTTTCTGACTGTGCTAG	2.8
GAGGGACTGGGGACTGGGGACGTGCTA	-1.21
GTAGGACTGGGTTTCGGTTAGTGCTAG	3.19
CAGCCTCTGAGCAGCTCGGCGTGCTAG	-0.565
GACGGTTTCCTTTTCCCGACGTGCTAG	10.3
TTACAACTGGGGTTTCGATTAGTGCTA	1.51
TTAGAACTGCGGTTTCGATTAGTGCTA	2.5
GACGGTCTCGGGACTGGGGACGTGCTA	-0.142
GACGGGTTCGACACTGGGGACGTGCTA	-0.364
CCTATCTTATGATATATATAAGTGCTA	1.79
GACGGACTGAGTATCGAGACGTGCTAG	-0.307
GACGGACTGGGGACTGGGGGCGTGCTA	-0.456
GACGCTTTCGGTTCCGGGACGTGCTAG	6.42
TCCTCTTTCTCTGCTACCCTCGTGCTA	2.87
TTAGGTATCCTACTGCATTAGTGCTAG	2.52
AATTAATAACTCGTAGGATCGTGCTAG	0.0496
TCACTCACTCACAGACTCACGTGCTAG	0.101
TTAGGTTTCGACTATCGGTTGGTGCTA	2.32
TATTGTTTCCTCTTTCACTGGTGCTAG	4.66

Study 4
Target: Sal-like protein 4, full length isoform A (SALL4, Homo sapiens, UniProt Q9UJQ4, residues 1-1053)
UniProt Q9UJQ4, sequence (whole entry, looked up): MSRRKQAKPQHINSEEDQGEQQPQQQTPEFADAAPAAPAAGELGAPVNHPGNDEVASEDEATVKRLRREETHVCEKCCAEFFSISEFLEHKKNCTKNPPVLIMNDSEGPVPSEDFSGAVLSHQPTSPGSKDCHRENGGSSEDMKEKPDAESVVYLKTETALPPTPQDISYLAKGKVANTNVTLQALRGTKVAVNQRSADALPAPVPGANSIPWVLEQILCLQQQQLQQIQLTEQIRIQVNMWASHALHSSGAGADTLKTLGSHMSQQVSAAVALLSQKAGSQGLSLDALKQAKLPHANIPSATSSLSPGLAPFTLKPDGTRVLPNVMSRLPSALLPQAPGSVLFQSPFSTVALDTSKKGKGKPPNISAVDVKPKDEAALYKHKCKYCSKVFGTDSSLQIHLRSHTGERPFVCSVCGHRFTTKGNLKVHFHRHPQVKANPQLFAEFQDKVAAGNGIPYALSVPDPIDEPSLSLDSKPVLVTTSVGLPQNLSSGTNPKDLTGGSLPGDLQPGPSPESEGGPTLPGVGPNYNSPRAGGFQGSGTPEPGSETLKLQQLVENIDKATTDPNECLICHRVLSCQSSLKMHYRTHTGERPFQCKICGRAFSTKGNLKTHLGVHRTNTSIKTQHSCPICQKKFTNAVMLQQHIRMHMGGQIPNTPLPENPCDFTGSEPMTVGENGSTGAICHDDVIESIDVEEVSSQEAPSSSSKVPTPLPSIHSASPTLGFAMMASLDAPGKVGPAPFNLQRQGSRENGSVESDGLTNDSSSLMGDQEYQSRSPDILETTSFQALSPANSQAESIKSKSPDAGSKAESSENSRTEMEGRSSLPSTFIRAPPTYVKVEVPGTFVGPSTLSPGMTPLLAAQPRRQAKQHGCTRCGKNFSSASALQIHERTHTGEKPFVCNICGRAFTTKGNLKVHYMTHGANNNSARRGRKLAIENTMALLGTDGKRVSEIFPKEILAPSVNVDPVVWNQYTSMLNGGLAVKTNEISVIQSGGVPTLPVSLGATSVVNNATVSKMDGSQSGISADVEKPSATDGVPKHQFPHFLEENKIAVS
Technique: universal PBM
Form: double-stranded DNA, one strand shown
Medium: in vitro
Concentration: 600 nM
Notes: 8-mer, flanks averaged, mean of replicates
Direction: higher = stronger binding
Oligonucleotide	E-score
CAAAGCAC	0.0287
CCCCCTCG	-0.312
TCTCTAAA	0.13
CAGTTGTA	-0.00441
GCGCGAGA	-0.101
ATCCTTTG	0.0813
CCGTTTAA	0.114
CGTTCGAA	0.0315
ACCCAAAA	-0.056
CGCAGGCC	-0.367
CCGATCTC	-0.27
CCGGGGAA	-0.304
CCACCCGC	-0.336
ACGGACCC	-0.281
AATAGTCG	-0.0187
CGAATAGC	0.0715
AAGAACGA	0.0752
TTGATCAA	0.16
AAGGGTCA	-0.032

Study 5
Target: RING finger protein unkempt homolog, zinc fingers 1-6, GST-SBP tag (UNK, Homo sapiens, UniProt Q9C0B0, residues 30-357)
UniProt Q9C0B0, sequence (30-357, looked up): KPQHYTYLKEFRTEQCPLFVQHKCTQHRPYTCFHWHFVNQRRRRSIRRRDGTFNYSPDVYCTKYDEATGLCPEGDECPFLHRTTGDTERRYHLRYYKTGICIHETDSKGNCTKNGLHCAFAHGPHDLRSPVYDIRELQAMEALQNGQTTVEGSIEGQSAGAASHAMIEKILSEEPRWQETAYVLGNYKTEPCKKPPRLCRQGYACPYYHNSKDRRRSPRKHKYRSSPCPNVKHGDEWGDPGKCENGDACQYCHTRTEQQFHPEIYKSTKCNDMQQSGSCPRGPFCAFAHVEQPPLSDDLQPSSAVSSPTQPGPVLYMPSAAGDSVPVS
Technique: RNA Bind-n-Seq
Form: RNA
Medium: in vitro
Concentration: not given
Notes: RNA with constant flanks, ends assumed
Baseline: input RNA pool
Direction: higher = stronger binding
Oligonucleotide	bound/input enrichment
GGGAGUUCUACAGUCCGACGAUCCUGCGCCAGAGAACAGAGAAUAUAGAUAUUAAAAAGUAUUGUGUGCAGUACCUGGAGGAUGCCGGUUCUUUUGCAUACACUCGACACACUCUUAGAGAGCUUGAAGCUAAAGCCUACAAACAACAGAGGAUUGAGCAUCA	11.2 ratio
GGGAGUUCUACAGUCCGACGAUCCUCCCACCCGCGUGUGUAAGCGCGGCCCGCCUCCUACAUCCAGCCCGCGCCCUCCAACCGCACCGGAUCCAUGUAUUUAUUUUCCUUGAGUUUUUAUUUAUGCUGUAACUCGUGUCAAGCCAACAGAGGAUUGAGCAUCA	0.912 ratio
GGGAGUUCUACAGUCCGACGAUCUAAACAUCUCACAUAUGAAAAUGUAGAGCGAUGGCUGAAAGAACUGAGAGAUCAUGCUGACCGUAACAUUGUUAUCAUGCUUGUGGGCAAUAAGAGUGAUCUACGUCAUCUCAGGGCAGUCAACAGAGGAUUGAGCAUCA	0.135 ratio
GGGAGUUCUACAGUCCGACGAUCGAAUAUGUGGCAAUCAAAACCAAGAAACGAAUCUUGCUGUACACCAUGAACCCCAACAAAUUCCGAGCUUGCCAGUUUCUGAUCAAGUUUCAUGAAAGGAGGAAUGACAAGAUUAUUGUCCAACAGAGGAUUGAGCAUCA	0.122 ratio
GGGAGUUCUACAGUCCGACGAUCUGGUUCCUGGAAGCUGAAGGCAAUGAAUGGCUACUUCAAGAACAGACCCCAUCUGGAGACACCGAGAAUAUUUCCAAUCAGCCGGCGAUUUCCCUGCAGAUUCCUACCCAUUGCUUGUCACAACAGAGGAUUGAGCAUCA	0.145 ratio
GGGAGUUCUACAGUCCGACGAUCGUGGGAGAUUUGGUUCUCAUCAUCCUAGAUGAGCGGCACGACAAUUAUGUAUUGUUUACUGUCCGUCCUACUUUAUAUUUUCUGCACUCAGAGUCUCUUCCUGCCCUGGAUCUCAAACCACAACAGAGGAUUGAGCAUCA	0.305 ratio

Excerpt of the above (study 2):
Oligonucleotide	7-mer Z-score
UAAUAUC	-0.211
AUUUUAG	0.0533
ACCACGU	-0.0881
CGUAGGU	-0.179
ACAGCGU	-0.168
CAAUCGC	-0.188
